Published values collected from several papers.
Protocols differ between the studies behind these lines. ± gives the spread as reported.
DRD4: D(4) dopamine receptor (DRD4, Homo sapiens, UniProt P21917)
Chain of UniProt P21917 (whole entry, looked up): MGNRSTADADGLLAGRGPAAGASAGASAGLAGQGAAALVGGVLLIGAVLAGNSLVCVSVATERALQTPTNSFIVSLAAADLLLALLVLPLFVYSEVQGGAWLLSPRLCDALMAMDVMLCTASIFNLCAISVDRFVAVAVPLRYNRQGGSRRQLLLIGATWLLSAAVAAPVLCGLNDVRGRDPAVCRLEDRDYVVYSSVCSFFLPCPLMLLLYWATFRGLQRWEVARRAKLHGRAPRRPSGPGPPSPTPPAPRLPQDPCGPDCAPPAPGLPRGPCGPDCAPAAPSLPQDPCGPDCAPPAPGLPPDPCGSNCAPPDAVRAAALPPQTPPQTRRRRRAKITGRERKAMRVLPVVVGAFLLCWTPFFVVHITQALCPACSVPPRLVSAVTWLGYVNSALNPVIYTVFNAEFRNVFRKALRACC
ADRA1A: Alpha-1A adrenergic receptor (ADRA1A, Homo sapiens, UniProt P35348)
Chain of UniProt P35348 (whole entry, looked up): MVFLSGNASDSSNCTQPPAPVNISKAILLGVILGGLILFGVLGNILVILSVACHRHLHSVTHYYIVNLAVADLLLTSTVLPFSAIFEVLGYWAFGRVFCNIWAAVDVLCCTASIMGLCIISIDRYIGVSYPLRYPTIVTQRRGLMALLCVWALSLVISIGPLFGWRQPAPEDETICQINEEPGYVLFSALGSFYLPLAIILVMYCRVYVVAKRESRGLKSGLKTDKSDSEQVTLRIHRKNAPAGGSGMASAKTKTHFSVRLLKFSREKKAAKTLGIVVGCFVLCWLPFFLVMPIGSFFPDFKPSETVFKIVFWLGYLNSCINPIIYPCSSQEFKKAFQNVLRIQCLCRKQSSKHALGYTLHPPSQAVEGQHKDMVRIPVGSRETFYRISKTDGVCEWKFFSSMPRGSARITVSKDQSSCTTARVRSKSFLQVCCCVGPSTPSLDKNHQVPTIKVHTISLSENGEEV
Bcl-2-related protein A1 C113S/P104K: Bcl-2-related protein A1 (Mus musculus, UniProt Q07440, C113S/P104K)
Chain of UniProt Q07440 (whole entry, unmodified, looked up): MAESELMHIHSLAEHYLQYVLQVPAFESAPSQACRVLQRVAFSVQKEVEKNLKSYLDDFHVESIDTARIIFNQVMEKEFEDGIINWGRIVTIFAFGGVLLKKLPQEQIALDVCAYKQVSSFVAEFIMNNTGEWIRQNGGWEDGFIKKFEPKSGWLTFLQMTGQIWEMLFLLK
POL4: DNA polymerase IV (POL4, Saccharomyces cerevisiae, UniProt P25615)
Chain of UniProt P25615 (whole entry, looked up): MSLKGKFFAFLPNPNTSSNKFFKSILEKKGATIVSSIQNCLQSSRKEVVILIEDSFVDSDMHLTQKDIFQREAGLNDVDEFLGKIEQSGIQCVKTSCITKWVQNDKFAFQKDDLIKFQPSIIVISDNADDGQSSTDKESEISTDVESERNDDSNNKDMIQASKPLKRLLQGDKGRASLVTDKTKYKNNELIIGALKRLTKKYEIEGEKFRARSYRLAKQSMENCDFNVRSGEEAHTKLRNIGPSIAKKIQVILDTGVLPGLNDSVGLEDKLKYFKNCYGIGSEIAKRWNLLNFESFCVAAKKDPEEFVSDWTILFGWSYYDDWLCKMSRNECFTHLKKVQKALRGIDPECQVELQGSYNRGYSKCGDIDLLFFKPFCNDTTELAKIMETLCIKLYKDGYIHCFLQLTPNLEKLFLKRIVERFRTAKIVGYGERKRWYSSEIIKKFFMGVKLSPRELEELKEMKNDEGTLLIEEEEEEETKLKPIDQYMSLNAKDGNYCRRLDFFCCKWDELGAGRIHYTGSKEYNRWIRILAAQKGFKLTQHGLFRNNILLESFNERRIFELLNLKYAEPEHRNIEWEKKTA
CNR1: Cannabinoid receptor 1 (CNR1, Homo sapiens, UniProt P21554)
Chain of UniProt P21554 (whole entry, looked up): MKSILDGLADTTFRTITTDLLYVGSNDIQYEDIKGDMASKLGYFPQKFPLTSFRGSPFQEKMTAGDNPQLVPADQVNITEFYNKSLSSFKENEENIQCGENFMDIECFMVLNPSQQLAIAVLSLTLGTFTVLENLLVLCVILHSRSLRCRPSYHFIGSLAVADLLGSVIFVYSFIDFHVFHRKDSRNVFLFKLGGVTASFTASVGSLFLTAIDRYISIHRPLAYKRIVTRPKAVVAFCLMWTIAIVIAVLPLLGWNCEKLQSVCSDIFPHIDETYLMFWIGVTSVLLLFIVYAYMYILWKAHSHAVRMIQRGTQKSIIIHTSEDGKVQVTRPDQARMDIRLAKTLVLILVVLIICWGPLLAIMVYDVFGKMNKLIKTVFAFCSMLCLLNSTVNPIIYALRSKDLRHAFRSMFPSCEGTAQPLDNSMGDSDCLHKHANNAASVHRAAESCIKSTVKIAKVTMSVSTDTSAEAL
HDAC8: Histone deacetylase 8 (HDAC8, Homo sapiens, UniProt Q9BY41)
Chain of UniProt Q9BY41 (whole entry, looked up): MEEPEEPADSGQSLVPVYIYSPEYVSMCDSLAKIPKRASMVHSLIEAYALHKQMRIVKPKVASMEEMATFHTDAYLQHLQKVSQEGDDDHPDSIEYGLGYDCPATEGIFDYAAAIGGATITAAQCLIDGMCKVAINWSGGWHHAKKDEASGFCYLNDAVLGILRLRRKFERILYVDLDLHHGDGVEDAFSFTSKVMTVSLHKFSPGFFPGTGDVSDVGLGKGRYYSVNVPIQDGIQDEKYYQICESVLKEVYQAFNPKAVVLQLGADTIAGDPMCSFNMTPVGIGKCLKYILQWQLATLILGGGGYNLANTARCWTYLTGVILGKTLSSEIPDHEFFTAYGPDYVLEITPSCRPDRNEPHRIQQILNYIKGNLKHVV
Chain of UniProt Q9H3R0 (whole entry, looked up): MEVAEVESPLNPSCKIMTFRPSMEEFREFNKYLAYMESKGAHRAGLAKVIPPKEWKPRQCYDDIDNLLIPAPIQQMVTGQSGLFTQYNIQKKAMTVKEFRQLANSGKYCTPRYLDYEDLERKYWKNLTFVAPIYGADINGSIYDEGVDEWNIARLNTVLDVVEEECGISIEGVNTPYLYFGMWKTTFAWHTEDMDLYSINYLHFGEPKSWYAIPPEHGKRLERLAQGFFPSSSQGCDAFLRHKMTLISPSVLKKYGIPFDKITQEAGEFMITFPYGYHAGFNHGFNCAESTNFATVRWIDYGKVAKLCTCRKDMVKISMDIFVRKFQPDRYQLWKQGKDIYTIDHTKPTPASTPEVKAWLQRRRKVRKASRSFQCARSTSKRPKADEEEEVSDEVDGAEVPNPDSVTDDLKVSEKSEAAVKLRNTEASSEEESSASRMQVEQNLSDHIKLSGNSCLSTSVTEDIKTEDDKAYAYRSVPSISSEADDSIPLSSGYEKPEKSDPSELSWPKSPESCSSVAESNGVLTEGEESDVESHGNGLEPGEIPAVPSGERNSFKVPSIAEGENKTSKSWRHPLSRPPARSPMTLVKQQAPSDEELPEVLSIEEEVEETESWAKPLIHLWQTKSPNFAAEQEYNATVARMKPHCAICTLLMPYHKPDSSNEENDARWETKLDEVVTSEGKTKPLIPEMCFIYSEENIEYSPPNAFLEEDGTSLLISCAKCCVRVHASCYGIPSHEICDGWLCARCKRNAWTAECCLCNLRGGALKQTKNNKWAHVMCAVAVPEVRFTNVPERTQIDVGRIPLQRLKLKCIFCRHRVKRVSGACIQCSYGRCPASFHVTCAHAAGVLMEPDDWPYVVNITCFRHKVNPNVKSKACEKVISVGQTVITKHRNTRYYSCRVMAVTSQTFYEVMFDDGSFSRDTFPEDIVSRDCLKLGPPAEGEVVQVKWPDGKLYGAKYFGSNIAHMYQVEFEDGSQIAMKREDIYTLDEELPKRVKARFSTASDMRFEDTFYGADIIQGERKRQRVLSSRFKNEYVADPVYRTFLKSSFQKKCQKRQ
Chain of UniProt P08588 (whole entry, looked up): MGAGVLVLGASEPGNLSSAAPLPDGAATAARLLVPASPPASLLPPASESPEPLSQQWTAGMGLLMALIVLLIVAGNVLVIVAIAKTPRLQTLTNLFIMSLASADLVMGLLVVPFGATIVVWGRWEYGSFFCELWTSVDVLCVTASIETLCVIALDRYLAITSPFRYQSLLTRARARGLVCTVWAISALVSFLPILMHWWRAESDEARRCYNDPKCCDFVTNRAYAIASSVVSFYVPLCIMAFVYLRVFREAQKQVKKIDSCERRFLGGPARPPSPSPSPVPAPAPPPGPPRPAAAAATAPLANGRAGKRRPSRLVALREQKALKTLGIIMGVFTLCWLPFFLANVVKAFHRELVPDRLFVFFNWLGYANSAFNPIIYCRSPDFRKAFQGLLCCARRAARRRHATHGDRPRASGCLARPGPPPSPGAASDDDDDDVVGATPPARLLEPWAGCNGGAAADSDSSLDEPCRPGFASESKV
Chain of UniProt Q16739 (whole entry, looked up): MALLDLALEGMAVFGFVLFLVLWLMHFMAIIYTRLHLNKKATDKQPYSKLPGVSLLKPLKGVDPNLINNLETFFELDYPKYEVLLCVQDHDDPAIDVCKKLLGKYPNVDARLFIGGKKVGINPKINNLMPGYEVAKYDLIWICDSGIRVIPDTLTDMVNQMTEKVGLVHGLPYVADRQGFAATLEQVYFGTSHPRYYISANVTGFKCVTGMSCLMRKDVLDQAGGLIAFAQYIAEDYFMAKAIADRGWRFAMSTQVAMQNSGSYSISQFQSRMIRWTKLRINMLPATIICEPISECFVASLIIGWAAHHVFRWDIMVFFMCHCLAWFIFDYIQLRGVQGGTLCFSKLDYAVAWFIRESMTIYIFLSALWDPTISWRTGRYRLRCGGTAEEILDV
Chain of UniProt P05177 (whole entry, looked up): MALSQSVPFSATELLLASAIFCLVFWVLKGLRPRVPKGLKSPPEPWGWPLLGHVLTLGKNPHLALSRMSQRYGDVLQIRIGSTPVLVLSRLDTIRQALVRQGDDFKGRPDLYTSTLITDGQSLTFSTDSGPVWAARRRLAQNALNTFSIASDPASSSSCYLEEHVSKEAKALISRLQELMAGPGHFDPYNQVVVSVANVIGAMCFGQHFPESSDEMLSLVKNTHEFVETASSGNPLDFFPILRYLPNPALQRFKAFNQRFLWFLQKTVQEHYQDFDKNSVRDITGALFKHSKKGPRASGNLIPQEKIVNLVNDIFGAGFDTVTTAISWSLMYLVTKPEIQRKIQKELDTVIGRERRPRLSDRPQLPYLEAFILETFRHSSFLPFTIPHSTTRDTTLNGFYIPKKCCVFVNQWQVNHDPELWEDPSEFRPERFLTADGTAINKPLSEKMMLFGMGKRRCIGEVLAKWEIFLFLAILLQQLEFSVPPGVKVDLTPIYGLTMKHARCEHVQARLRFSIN

COc1ccc(CN2CCC(F)(F)C(COc3ccc(C)c(F)c3)C2)cc1F (stereo not shown)  Ki (DRD4; ligand displacement, radioligand; cell membranes): 0.072 µM
CN1CCC[C@@H]1C(=O)N[C@@H](Cc1ccc(-c2ccccc2)cc1)B(O)O  Ki (20S proteasome (Plasmodium falciparum, UniProt A0A5K1K7U1+Q8IJT1); inhibitor, progress curve): 0.0028 µM
COc1ccc(CN2CCC(F)(F)C(COc3ccc(F)cc3)C2)cc1F (stereo not shown)  Ki (DRD4; ligand displacement, radioligand; cell membranes): 0.22 µM
Fc1cc(-c2ccc3c(n2)[nH]c2ccncc23)ccn1  Ki (Microtubule-associated protein tau, PSP brain aggregates (MAPT, Homo sapiens, UniProt P10636); binding, competition binding; human, PSP brain tissue; with: [3H]compound tracer): 0.0089 µM
COc1ccc(CN2CCC(F)(F)C(COc3cccc(Cl)n3)C2)cc1F (stereo not shown)  Ki (DRD4; ligand displacement, radioligand; cell membranes): 0.21 µM
CNC[C@H](O)c1cccc(OCCOCCOCC#Cc2cccc(Cn3c(-c4ccccc4)c(-c4ccccc4)c4c(=N)n([C@H]5CC[C@H](O)CC5)cnc43)c2)c1  Ki (ADRA1A; ligand displacement, radioligand; cell membranes): 0.423 µM
COc1ccc(CN2CCC(F)(F)C(COc3ccc(Cl)c(F)c3)C2)cc1F (stereo not shown)  Ki (DRD4; ligand displacement, radioligand; cell membranes): 0.053 µM
COc1ccc(-c2coc3cc(O)cc(O)c3c2=O)cc1  Ki (Cytochrome P450 1A2 (CYP1A2, Homo sapiens, UniProt P05177); enzyme activity, inhibitor; human, liver microsomes; 15 min): 55.8 µM
O=S(=O)(O)c1ccc(N=Nc2ccc(O)cc2O)cc1  Ki (Bcl-2-related protein A1 C113S/P104K; ligand displacement, FP): 4.04 µM
O=C(NCCOP(=O)(O)OP(=O)(O)OP(=O)(O)O)OCC1c2ccccc2-c2ccccc21  Ki (POL4; DNA polymerase activity, inhibitor, [3H]dTTP incorporation; with: poly(dA)/oligo(dT)): 0.45 µM
CCOC(=O)C(CC)(CCCSCCOCCOCCOCCOCCNc1ccc([N+](=O)[O-])c2nonc12)NC(=O)c1ccc(C2CC2)c(Cc2ccc(F)cc2)n1 (stereo not shown)  Ki (CNR1; ligand displacement, radioligand; cell membranes): 0.617 µM
c1ccc(OC[C@H]2CN(CCN3CCc4ccccc43)CCO2)nc1  Ki (DRD4; ligand displacement, radioligand): 0.814 µM
COc1ccc(CN2CCC(F)(F)C(COc3ncc(C)s3)C2)cc1F (stereo not shown)  Ki (DRD4; ligand displacement, radioligand; cell membranes): 0.21 µM
CCOC(=O)[C@@H](CCSC)NC(=O)c1ccc(C2CC2)c(Cc2ccc(F)cc2)n1  Ki (CNR1; ligand displacement, radioligand; cell membranes): 0.153 µM
CCc1c(Cl)cccc1N1CCN(C[C@@H](F)CCNC(=O)c2cc3ccccc3[nH]2)CC1  Ki (DRD4; ligand displacement, radioligand; cell membranes): > 10 µM
CCC1(CC)CC(=O)N(C2CCOc3ccc(C(=O)NC4CC(C)(C)Oc5ccccc54)cc32)C(=N)N1 (stereo not shown)  Ki (Plasmepsin IX (Plasmodium falciparum, UniProt Q8ILG2); enzyme activity, inhibitor, peptide cleavage): 0.000733 ± 0.000126 µM
CCOC(=O)C(CC)(CCCSCCOCCOCCOCCOCCN)NC(=O)c1ccc(C2CC2)c(Cc2ccc(F)cc2)n1 (stereo not shown)  Ki (CNR1; ligand displacement, radioligand; cell membranes): 0.164 µM
CCN(CC)CCNc1ccc(C)c2sc3ccccc3c(=O)c12  Ki (Bcl-2-related protein A1 C113S/P104K; ligand displacement, FP): 15.2 µM
CC(C)(O)c1ccc(N2Cc3c(ccnc3-c3ccc(F)cc3OCC(F)(F)F)C2=O)cc1  Ki (UGCG (Homo sapiens, UniProt Q16739); enzyme activity, noncompetitive inhibitor, steady-state kinetics; baseline: versus ceramide): 0.0052 ± 0.0014 µM
CCOC(=O)C(CC)(CCCSCCCCCCN)NC(=O)c1ccc(C2CC2)c(Cc2ccc(F)cc2)n1 (stereo not shown)  Ki (CNR1; ligand displacement, radioligand; cell membranes): 0.204 µM
COc1ccccc1-c1ccn2nc(NC(=O)C3CC3)cc2c1  Ki (SIK2 (Homo sapiens, UniProt Q9H0K1); enzyme activity, inhibitor): 0.022 µM
CCOC(=O)[C@](CC)(CCCSCCOCCOCCNC(=O)CCCCCN1C(=CC=CC=CC2=[N+](C)c3ccc4ccccc4c3C2(C)C)C(C)(C)c2c1ccc1ccccc21)NC(=O)c1ccc(C2CC2)c(Cc2ccc(F)cc2)n1  Ki (CNR1; ligand displacement, radioligand; cell membranes): 0.108 µM
O=C(OCCCCOP(=O)(O)OP(=O)(O)OP(=O)(O)O)c1ccccc1  Ki (POL4; DNA polymerase activity, inhibitor, [3H]dTTP incorporation; with: poly(dA)/oligo(dT)): 2.2 µM
CCOC(=O)C(CC)(CCCSCCOCCN)NC(=O)c1ccc(C2CC2)c(Cc2ccc(F)cc2)n1 (stereo not shown)  Ki (CNR1; ligand displacement, radioligand; cell membranes): 0.2 µM
CC(C)c1ccc(N(C)c2ccc3c(c2)OCC[C@H]3CNc2cnccc2C(=O)O)cc1  Ki (KDM4C (Homo sapiens, UniProt Q9H3R0); enzyme activity, inhibitor, TR-FRET, item: H3K9me3 demethylation): 0.038 ± 0.004 µM
COc1ccc(CN2CCC(F)(F)C(COc3ccc(F)c(C)c3)C2)cc1F (stereo not shown)  Ki (DRD4; ligand displacement, radioligand; cell membranes): 0.0129 µM
O=C(NO)c1cccc(OS(=O)(=O)Oc2cccc([N+](=O)[O-])c2)c1  Ki (HDAC8; enzyme activity, inhibitor, fluorescence): 0.022 µM
Cn1ncc2cc(CN3CCC(F)(F)C(COc4cccc(C#N)c4)C3)ccc21 (stereo not shown)  Ki (DRD4; ligand displacement, radioligand; cell membranes): 0.0596 µM
O=C(NO)c1cncc(OS(=O)(=O)Oc2ccccc2-c2ccccc2)c1  Ki (HDAC8; enzyme activity, inhibitor, fluorescence): 1.12 µM
N#Cc1ccc(OCC2CN(Cc3ncn4ccccc34)CCC2(F)F)cc1 (stereo not shown)  Ki (DRD4; ligand displacement, radioligand; cell membranes): 0.0017 µM
CNC[C@H](O)c1cccc(OCCOCC#Cc2cccc(Cn3c(-c4ccccc4)c(-c4ccccc4)c4c(=N)n([C@H]5CC[C@H](O)CC5)cnc43)c2)c1  Ki (ADRA1A; ligand displacement, radioligand; cell membranes): 0.788 µM
CC(C)c1ccccc1OS(=O)(=O)Oc1cccc(C(=O)NO)c1  Ki (HDAC8; enzyme activity, inhibitor, fluorescence): 0.208 µM
O=C(CN1CCO[C@@H](COc2cccc(Cl)c2)C1)N1CCc2ccccc21  Ki (DRD4; ligand displacement, radioligand): 0.536 µM
CC(C)(C)c1ccccc1OS(=O)(=O)Oc1cccc(C(=O)NO)c1  Ki (HDAC8; enzyme activity, inhibitor, fluorescence): 0.095 µM
O=C(NCCCCOP(=O)(O)OP(=O)(O)OP(=O)(O)O)OCC1c2ccccc2-c2ccccc21  Ki (POL4; DNA polymerase activity, inhibitor, [3H]dTTP incorporation; with: poly(dA)/oligo(dT)): 0.35 µM
CCOC(=O)[C@](CC)(CCCSCCOCCOCCNC(=O)OC(C)(C)C)NC(=O)c1ccc(C2CC2)c(Cc2ccc(F)cc2)n1  Ki (CNR1; ligand displacement, radioligand; cell membranes): 0.163 µM
Cn1ccc2c(N3CCN(CCCCOc4ccc5c(c4)NC(=O)CC5)CC3)cccc21  Ki (ADRB1 (Homo sapiens, UniProt P08588); ligand displacement, radioligand): 0.431 µM
